# Results collected from several papers.
# Compare with care: the assays were run in different laboratories. ± marks the error that the study gave.
# CES2: Cocaine esterase (CES2, Homo sapiens, UniProt O00748)
# UniProt O00748, sequence (whole entry, looked up): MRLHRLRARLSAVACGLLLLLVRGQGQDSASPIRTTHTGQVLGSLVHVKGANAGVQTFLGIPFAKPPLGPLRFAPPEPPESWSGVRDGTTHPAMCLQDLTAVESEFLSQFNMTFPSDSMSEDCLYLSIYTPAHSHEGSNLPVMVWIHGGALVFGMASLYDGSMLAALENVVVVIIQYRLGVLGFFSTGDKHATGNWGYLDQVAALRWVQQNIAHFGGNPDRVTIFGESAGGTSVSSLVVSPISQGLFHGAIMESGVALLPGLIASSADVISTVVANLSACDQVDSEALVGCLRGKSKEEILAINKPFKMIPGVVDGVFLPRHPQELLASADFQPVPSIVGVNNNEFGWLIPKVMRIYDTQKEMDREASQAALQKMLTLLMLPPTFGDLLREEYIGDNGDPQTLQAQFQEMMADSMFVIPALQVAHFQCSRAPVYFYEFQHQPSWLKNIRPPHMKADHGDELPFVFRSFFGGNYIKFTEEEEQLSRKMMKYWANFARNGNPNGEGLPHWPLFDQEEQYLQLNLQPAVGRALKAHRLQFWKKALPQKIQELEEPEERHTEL
# PGR: Progesterone receptor (PGR, Homo sapiens, UniProt P06401)
# UniProt P04062, sequence (whole entry, unmodified, looked up): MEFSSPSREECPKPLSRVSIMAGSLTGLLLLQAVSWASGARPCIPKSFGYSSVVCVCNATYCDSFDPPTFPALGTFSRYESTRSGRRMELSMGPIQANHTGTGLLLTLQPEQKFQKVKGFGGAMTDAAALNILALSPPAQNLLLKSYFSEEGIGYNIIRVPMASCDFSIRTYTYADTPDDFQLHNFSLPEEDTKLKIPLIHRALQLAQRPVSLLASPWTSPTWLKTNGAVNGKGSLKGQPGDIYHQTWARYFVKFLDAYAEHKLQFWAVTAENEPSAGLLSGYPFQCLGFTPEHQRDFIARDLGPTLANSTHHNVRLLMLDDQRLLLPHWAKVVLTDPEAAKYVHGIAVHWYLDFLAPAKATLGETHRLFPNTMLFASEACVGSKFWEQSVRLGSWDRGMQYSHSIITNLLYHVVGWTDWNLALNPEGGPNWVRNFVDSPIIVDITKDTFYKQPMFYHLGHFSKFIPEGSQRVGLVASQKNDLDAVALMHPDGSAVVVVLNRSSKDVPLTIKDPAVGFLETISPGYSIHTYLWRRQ
# UniProt P06401, sequence (whole entry, looked up): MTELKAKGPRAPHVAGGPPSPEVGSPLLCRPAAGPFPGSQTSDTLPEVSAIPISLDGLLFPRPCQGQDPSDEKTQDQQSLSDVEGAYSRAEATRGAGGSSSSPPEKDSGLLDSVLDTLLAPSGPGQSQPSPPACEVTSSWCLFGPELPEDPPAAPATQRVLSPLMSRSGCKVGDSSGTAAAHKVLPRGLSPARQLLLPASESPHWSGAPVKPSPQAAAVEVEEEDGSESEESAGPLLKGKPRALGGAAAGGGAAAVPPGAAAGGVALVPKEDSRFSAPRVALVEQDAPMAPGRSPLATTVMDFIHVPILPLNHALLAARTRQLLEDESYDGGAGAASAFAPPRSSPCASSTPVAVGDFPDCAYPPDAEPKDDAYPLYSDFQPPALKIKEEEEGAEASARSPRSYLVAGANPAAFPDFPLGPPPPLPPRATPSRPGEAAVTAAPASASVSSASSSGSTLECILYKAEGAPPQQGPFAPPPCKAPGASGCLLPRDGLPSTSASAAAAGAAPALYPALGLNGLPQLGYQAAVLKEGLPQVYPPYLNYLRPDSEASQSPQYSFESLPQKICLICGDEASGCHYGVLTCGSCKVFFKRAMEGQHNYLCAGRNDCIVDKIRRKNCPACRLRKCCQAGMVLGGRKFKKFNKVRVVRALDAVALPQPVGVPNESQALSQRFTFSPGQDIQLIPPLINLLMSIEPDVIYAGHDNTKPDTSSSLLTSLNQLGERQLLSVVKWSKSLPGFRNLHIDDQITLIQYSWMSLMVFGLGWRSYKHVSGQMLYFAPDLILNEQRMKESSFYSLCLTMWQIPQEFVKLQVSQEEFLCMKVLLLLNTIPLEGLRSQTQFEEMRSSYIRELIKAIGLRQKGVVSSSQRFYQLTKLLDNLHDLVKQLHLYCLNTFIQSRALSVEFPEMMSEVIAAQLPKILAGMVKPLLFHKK
# UniProt O00206, sequence (whole entry, looked up): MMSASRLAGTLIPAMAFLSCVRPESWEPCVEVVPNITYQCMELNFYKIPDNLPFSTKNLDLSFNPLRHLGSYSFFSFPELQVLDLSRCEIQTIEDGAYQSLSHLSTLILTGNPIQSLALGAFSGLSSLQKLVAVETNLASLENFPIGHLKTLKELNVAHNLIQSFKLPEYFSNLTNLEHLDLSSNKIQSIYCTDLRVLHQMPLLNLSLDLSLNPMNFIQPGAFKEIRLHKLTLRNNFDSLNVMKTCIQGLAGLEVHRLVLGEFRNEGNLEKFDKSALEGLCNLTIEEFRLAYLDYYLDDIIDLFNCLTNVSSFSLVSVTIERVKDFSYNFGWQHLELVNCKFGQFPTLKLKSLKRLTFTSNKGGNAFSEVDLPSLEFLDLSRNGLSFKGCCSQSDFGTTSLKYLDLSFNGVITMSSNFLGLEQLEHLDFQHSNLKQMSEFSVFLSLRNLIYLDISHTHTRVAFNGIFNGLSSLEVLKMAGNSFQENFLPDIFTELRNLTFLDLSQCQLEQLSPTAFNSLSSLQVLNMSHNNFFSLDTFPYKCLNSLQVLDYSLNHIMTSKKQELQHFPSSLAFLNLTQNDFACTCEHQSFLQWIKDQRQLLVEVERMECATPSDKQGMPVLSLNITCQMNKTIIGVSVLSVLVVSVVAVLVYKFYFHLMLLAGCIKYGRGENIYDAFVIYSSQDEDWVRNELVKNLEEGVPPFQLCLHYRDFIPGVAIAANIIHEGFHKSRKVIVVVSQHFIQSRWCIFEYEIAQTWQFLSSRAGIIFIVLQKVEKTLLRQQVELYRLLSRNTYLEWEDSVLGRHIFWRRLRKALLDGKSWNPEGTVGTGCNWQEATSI
# UniProt Q16288, sequence (whole entry, looked up): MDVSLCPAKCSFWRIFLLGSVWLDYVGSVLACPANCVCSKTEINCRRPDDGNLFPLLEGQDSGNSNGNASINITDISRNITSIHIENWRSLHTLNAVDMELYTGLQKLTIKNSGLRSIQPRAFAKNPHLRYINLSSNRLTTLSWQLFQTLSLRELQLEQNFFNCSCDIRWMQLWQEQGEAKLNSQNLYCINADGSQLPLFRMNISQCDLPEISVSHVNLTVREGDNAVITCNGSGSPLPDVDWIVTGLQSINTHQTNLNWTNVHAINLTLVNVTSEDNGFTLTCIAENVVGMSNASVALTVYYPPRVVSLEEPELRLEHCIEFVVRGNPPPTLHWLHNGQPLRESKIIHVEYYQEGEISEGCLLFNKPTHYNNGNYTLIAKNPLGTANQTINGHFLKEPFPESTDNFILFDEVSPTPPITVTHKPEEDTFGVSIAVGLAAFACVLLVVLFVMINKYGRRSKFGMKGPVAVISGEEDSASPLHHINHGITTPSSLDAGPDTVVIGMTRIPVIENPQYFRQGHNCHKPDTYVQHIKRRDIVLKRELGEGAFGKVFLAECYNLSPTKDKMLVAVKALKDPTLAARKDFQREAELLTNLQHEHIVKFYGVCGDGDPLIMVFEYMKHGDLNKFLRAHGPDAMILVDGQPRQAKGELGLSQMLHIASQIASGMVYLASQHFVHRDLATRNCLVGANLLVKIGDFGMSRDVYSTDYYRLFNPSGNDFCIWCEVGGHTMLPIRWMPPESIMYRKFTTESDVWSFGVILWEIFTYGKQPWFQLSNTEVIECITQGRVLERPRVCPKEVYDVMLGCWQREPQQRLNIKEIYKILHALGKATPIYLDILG
# UniProt P31639, sequence (whole entry, looked up): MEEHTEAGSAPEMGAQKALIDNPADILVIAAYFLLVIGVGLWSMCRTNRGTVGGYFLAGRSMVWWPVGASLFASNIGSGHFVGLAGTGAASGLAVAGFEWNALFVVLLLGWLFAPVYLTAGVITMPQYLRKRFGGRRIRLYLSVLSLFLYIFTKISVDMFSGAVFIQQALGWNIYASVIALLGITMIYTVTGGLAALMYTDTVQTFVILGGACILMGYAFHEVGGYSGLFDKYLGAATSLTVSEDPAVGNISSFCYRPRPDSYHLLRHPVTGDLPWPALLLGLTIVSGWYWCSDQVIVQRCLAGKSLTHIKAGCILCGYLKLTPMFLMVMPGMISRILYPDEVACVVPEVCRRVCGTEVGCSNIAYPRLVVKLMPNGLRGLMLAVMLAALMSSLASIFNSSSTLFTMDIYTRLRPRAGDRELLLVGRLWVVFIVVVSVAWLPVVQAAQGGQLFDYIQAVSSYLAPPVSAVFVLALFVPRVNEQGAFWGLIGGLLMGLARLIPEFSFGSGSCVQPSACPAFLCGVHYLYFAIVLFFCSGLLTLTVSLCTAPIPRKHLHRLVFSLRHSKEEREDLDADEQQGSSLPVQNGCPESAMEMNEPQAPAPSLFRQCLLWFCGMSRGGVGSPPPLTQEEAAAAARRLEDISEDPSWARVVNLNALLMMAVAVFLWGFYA
# UniProt P52564, sequence (whole entry, looked up): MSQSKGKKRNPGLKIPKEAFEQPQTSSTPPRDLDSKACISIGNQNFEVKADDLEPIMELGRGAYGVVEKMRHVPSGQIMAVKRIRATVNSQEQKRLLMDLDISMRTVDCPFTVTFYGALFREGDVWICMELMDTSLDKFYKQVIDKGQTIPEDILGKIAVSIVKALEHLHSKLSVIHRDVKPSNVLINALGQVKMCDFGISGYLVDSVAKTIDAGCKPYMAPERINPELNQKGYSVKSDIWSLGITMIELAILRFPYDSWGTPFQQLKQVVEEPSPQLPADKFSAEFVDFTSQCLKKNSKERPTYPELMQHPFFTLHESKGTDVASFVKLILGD
# UniProt Q06911, sequence (whole entry, unmodified, looked up): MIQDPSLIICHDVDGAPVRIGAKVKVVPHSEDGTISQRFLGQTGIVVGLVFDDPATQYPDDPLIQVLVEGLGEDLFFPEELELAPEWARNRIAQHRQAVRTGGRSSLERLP
Compound,target,test,system,setting,scale,measurement,result
O=C(NC[C@@H](Cc1ccc(F)cc1)N1CCC(O)(C(F)(F)F)CC1)C1(c2ccc(Cl)cc2)CCCC1,"Transient receptor potential cation channel subfamily A member 1 (TRPA1, Homo sapiens, UniProt O75762, I946M)","calcium influx, agonist",,"concentration not given, I946M mutant",,activation,inhibited
COc1cc(C(=O)NC2CCC(N3CCN(CC4CCC5(CCCC5)C4)CC3)CC2)c(F)cc1Nc1ncc2c(n1)N(C1CCCC1(F)F)CC(F)(F)C(=O)N2C (stereo not shown),"NT-3 growth factor receptor (NTRK3, Homo sapiens, UniProt Q16288)","cell-free assay, TR-FRET",,10 µM,,inhibition,5.03%
CC1=CC(C)=[N+]2C1=C(CCCCc1cn(C[C@@H]3[C@@H](O)[C@H](O)[C@@H](O)[C@@H]4O[C@H]34)nn1)c1c(C)cc(C)n1[B-]2(F)F,"Lysosomal acid glucosylceramidase (GBA1, Homo sapiens, UniProt P04062, R534H)",tryptophan fluorescence,,"pH 7.4, complex with inhibitor",,emission maximum,333 nm
CCCCCCCC(=O)Nc1ccc(OC)nc1C,CES2,"enzyme activity, substrate",,"pH 8, 37 °C, substrate 3.13 to 100 µM",,Km,18 µM
[3H]CC([3H])C(=O)NCc1cc(C(=O)NCCN2CCC(N3CCC(n4c(=O)[nH]c5ccccc54)CC3)CC2)cc(C(=O)NCCN2CCN(CCCCC3CCN(CC(=O)N4c5ccccc5NC(=O)c5ccccc54)CC3)CC2)c1 (stereo not shown),"Muscarinic acetylcholine receptor M2 (CHRM2, Homo sapiens, UniProt P08172)",binding,,,,kon,5.17e+06 M⁻¹ s⁻¹
C=CC(=O)N1CCN(c2nc(OCC34CCCN3CCC4)nc3c(F)c(-c4ccc(F)c5sc(N)nc45)c(C(F)(F)F)cc23)CC1,"GTPase KRas, GppNHp-bound (KRAS, Homo sapiens, UniProt P01116, C118S/G12C)",MALDI-TOF MS,,"15 min, GppNHp-loaded",,covalent modification,50%
N[C@@H](Cc1ccc(O)c(Cl)c1)C(=O)O,"Iodotyrosine deiodinase 1 (Homo sapiens, UniProt Q6PHW0)","substrate, stopped-flow",,200 µM,,k2,0.134 s⁻¹
S=C(Nc1ccc(Cl)cc1)Nc1cccc2[nH]ccc12,"Alpha-synuclein (SNCA, Homo sapiens, UniProt P37840)","oligomerization, PICUP cross-linking",,"range 3.13 to 50 µM tested, with: alpha-synuclein 60 µM",,effective concentration,12.5 to 50 µM
CCCCCCCCCSc1nc2c([nH]1)c(=S)n(C)c(=O)n2C,PGR,"reporter gene, antagonist, MMTV-luciferase",T47D/A1-2,"10 µM, 24 h, with: 5 nM progesterone",baseline: maximal activity,remaining activity,42%
CCc1nc2cc3ccccc3cc2cc1C(=O)N1CCC[C@H]1C(=O)N[C@@H](C/C=C/C[C@H](NC(=O)[C@@H]1CCCN1C(=O)c1cc2cc3ccccc3cc2nc1CC)C(=O)N[C@@H](CCCCN)C(=O)NCCCN)C(=O)N[C@@H](CCCCN)C(=O)NCCCN,CUG–CAG duplex RNA,SPR,,,,residence time,180 s
CC12CC3CC(C)(C1)CC(NC(=O)Nc1ccc(C(=O)N4CCC[C@H](NS(C)(=O)=O)C4)cc1F)(C3)C2,"Bifunctional epoxide hydrolase 2 (EPHX2, Homo sapiens, UniProt P34913)",,,,,lipophilic ligand efficiency,7.35
CC1=NN(c2ccccc2)C(=O)/C1=C\c1ccc(-c2cc(C(=O)O)ccc2Cl)o1,"Kelch-like ECH-associated protein 1 (Mus musculus, UniProt Q9Z2X8)",ligand-detected NMR,,"50 µM, protein 5 or 2.5 µM",,binding,binds
CC(=O)N[C@@H](Cc1c[nH]c2ccccc12)C(=O)N[C@@H](Cc1c[nH]c2ccccc12)C(=O)N[C@@H](Cc1c[nH]c2ccccc12)C(=O)N[C@@H](Cc1c[nH]c2ccccc12)C(=O)N[C@@H](Cc1c[nH]c2ccccc12)C(=O)N[C@@H](Cc1c[nH]c2ccccc12)C(=O)N[C@@H](Cc1c[nH]c2ccccc12)C(=O)NCCCC[C@@H]1NC(=O)[C@H](CCCNC(=N)N)NC(=O)[C@H](CCCNC(=N)N)NC(=O)[C@H](CCCNC(=N)N)NC(=O)[C@H](CCCNC(=N)N)NC(=O)[C@H](CCCNC(=N)N)NC1=O,"Mast/stem cell growth factor receptor Kit (KIT, Homo sapiens, UniProt P10721)","enzyme activity, inhibitor",,5 µM,,remaining activity,88%
CC[C@H](C)[C@H](NC(=O)CNC(C)=O)C(=O)N[C@@H](CCCNC(=N)N)C(=O)N[C@@H](CCC(=O)O)C(=O)N[C@@H](C)C(=O)N[C@H](C(=O)N[C@@H](CC(C)C)C(=O)N[C@@H](CCCNC(=N)N)C(=O)N[C@@H](C)C(=O)N[C@@H](Cc1c[nH]c2ccccc12)C(=O)N[C@@H](CCC(=O)O)C(=O)N[C@@H](CCCNC(=N)N)C(=O)N[C@@H](CCCNC(=N)N)C(=O)N[C@@H](Cc1ccc(O)cc1)C(=O)NCC(=O)N[C@@H](Cc1ccccc1)C(=O)N1CCC[C@H]1C(=O)N[C@@H](CCCNC(=N)N)C(=O)N1CCC[C@H]1C(=O)N[C@@H](CC(C)C)C(=O)N[C@@H](CCCNC(=N)N)C(=O)N[C@@H](CO)C(=O)N[C@@H](CCC(=O)O)C(N)=O)[C@@H](C)O,"Antirepressor protein CarS (carS, Myxococcus xanthus, UniProt Q06911)",ITC,,"pH 7.5, 20 °C",,ΔH,-5.7 ± 0.05 kcal/mol
CC[C@H](C)[C@H](NC(=O)[C@H](CC(C)C)NC(=O)[C@H](C)NC(=O)CNC(=O)CNC(=O)[C@H](CS)NC(=O)[C@H](Cc1ccccc1)NC(=O)[C@H](Cc1c[nH]cn1)NC(=O)[C@H](CCCNC(=N)N)NC(=O)CNC(=O)[C@H](CCC(N)=O)NC(=O)[C@@H](N)CC(N)=O)C(=O)N[C@@H](Cc1c[nH]cn1)C(=O)N[C@@H](C)C(=O)N[C@@H](CCCNC(=N)N)C(=O)N[C@@H](Cc1ccccc1)C(=O)N[C@H](C(=O)N[C@@H](CCSC)C(=O)N[C@H](C(=O)N[C@@H](C)C(=O)N[C@@H](C)C(=O)N[C@@H](CO)C(=O)N[C@@H](CS)C(=O)N[C@@H](Cc1ccccc1)C(=O)N[C@@H](CCC(N)=O)C(=O)O)[C@@H](C)O)C(C)C,"Toll-like receptor 4 (TLR4, Homo sapiens, UniProt O00206)","SEAP reporter, agonist",HEK-Blue hTLR4 cells,concentration not given,baseline: full-length peptide,fold threshold concentration,100 fold
C[C@@H]1O[C@@H](O[C@H]2C(=O)c3c(O)cc(O)cc3O[C@@H]2c2ccc(O)c(O)c2)[C@H](O)[C@H](O)[C@H]1O,"Sodium/glucose cotransporter 2 (SLC5A2, Homo sapiens, UniProt P31639)",inhibitor,COS-7 expressing SLC5A2,50 µM,baseline: control,1-NBDG uptake,37.1 ± 2.99%
C=CCC1NC(=O)C=CC(=O)NC(C(N)=O)CCNC(=O)C(CCCNC(=O)c2cnccn2)NC(=O)C(Cc2ccco2)NC1=O (stereo not shown),"Dual specificity mitogen-activated protein kinase kinase 6 (MAP2K6, Homo sapiens, UniProt P52564)",DNA-templated library selection,,one selection round,,enrichment factor,0.81
Nc1ncc(-c2nc(N3CCOCC3)nc(N3CCN(C(=O)CCC(=O)N4CCC(CC5CCN(c6cc7c(cc6F)C(=O)N(C6CCC(=O)NC6=O)C7=O)CC5)CC4)CC3)n2)c(C(F)F)n1 (stereo not shown),"Phosphatidylinositol 4,5-bisphosphate 3-kinase catalytic subunit beta isoform (PIK3CB, Homo sapiens, UniProt P42338)","degrader, parallel reaction monitoring",MCF7,"100 nM, 6 h",,degradation,~50%
CCCCCCCCC(=O)Nc1ccc(OC)nc1C,CES2,substrate,,"50 µM, pH 8, 37 °C, enzyme purity 4%",,specific activity,37 pmol/min/µg
N=C(N)NCCC[C@H](NC(=O)[C@H](CC(=O)O)NC(=O)[C@@H]1CSCCCC(=O)NCC(=O)N[C@@H](Cc2c[nH]cn2)C(=O)N[C@H](Cc2ccccc2)C(=O)N[C@@H](CCCNC(=N)N)C(=O)N[C@H](Cc2c[nH]c3ccccc23)C(=O)N1)C(=O)N[C@@H](Cc1ccccc1)C(=O)NCC(N)=O,"Melanocortin receptor 5 (MC5R, Homo sapiens, UniProt P33032)","cAMP accumulation, agonist",HEK293 expressing MC5R,10 µM,baseline: MT-II,activation,65%
Nc1ncnc2c1ncn2C1OC(COP(=O)(O)OP(=O)(O)OCC2OC(O)C(O)C2O)C(O)C1O (stereo not shown),"TRPM2 (Nematostella vectensis, UniProt A7T1N0, T179A)","channel activation, agonist, inside-out patch clamp",,"T179A, 2.5 µM PIP2, with: 125 µM Ca2+",baseline: wild type,EC50 fold increase,~10 fold
CCCCCCCCOP(=O)(CCCCCCCC)O[C@@H]1O[C@H](CO)[C@@H](O)[C@H](O)[C@H]1F (mixture of isomers),"Lysosomal acid glucosylceramidase (GBA1, Homo sapiens, UniProt P04062)","enzyme activity, irreversible inhibitor",,"pH 5.5, 37 °C, with: 2,4-dinitrophenyl beta-D-glucopyranoside",,inactivation rate constant,4.09 min⁻¹
CC(C)(C)CCN1C[C@@H]2[C@@H](CNC(=O)c3cc(Cl)cc(Cl)c3)[C@@H]2C1.Cl,"Voltage-dependent L-type calcium channel subunit alpha-1C (CACNA1C, Oryctolagus cuniculus, UniProt P15381)",whole-cell patch clamp,"HEK-293T, transfected",5 µM,,calcium current inhibition,no inhibition
CCCCCCCCCSc1nc2c([nH]1)c(=O)n(C)c(=S)n2C,PGR,"reporter gene, antagonist, MMTV-luciferase",T47D/A1-2,"10 µM, 24 h, with: 5 nM progesterone",baseline: maximal activity,remaining activity,79%
Nc1ncnc2c(CN3C[C@H](CSCC[C@H](N)C(=O)O)[C@@H](O)C3)c[nH]c12,"MTA/SAH nucleosidase (Campylobacter jejuni subsp. jejuni, UniProt Z9IB28FKP7)",,,,baseline: Km of SAH over Kd,ratio,500 fold

# A few entries again:
Compound,target,test,system,setting,scale,measurement,result
C=CCC1NC(=O)C=CC(=O)NC(C(N)=O)CCNC(=O)C(CCCNC(=O)c2cnccn2)NC(=O)C(Cc2ccco2)NC1=O (stereo not shown),"Dual specificity mitogen-activated protein kinase kinase 6 (MAP2K6, Homo sapiens, UniProt P52564)",DNA-templated library selection,,one selection round,,enrichment factor,0.81
Nc1ncc(-c2nc(N3CCOCC3)nc(N3CCN(C(=O)CCC(=O)N4CCC(CC5CCN(c6cc7c(cc6F)C(=O)N(C6CCC(=O)NC6=O)C7=O)CC5)CC4)CC3)n2)c(C(F)F)n1 (stereo not shown),"Phosphatidylinositol 4,5-bisphosphate 3-kinase catalytic subunit beta isoform (PIK3CB, Homo sapiens, UniProt P42338)","degrader, parallel reaction monitoring",MCF7,"100 nM, 6 h",,degradation,~50%
CCCCCCCCC(=O)Nc1ccc(OC)nc1C,CES2,substrate,,"50 µM, pH 8, 37 °C, enzyme purity 4%",,specific activity,37 pmol/min/µg
